Experimental data gathered from unrelated publications.
Numbered parts are unrelated; each lists some results of a single study.

Series 1 — technique: universal PBM; form: double-stranded DNA, one strand shown; matrix: in vitro; concentration: 600 nM; reading: higher = stronger binding
Target: Sal-like protein 4, full length isoform A (SALL4, Homo sapiens, UniProt Q9UJQ4, residues 1-1053)
UniProt Q9UJQ4, sequence (whole entry, looked up): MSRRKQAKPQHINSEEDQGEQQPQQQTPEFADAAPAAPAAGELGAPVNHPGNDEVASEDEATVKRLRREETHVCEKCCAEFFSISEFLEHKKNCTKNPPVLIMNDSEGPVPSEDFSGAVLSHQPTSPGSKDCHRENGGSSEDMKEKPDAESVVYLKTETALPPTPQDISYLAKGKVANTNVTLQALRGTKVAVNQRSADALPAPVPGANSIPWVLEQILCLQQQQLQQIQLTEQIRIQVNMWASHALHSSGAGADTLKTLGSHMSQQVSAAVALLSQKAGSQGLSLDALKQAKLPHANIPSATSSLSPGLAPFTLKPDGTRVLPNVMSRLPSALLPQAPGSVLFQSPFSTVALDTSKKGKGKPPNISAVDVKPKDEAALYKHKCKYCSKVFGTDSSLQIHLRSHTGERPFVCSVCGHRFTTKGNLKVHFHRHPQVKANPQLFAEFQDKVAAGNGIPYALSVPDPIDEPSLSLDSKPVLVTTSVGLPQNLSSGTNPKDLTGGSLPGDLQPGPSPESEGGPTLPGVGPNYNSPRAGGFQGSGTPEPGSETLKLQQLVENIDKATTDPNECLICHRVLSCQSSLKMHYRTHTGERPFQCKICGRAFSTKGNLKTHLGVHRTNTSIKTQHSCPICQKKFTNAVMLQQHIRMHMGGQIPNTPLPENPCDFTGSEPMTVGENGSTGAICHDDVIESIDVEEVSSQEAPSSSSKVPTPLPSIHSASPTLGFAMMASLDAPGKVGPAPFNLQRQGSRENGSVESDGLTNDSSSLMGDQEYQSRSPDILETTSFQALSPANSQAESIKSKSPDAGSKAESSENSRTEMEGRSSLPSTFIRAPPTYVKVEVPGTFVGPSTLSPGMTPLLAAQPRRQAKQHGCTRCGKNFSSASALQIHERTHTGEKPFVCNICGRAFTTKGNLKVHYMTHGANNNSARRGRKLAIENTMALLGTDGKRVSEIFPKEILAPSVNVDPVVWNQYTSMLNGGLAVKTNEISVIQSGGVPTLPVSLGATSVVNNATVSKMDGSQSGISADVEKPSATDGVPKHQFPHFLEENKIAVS
Setting: 8-mer, flanks averaged, mean of replicates
`AACGGGGT` has an E-score of -0.305.
For `GATCACCA`, the E-score was -0.0522.
The E-score of `GGCCAGAA` is reported as -0.188.
With `ATGAGCGA` the E-score was 0.0602.
`GAGCCATC` has an E-score of -0.202.
With `AAAAGAAT` the E-score was 0.302.
The E-score of `ACACTGCA` is reported as -0.153.
With `CGTCTGTC` the E-score was -0.255.
`ATTGGTTG` has an E-score of 0.109.
With `GTAAGATA` the E-score was 0.301.
`ACAGCCGC` has an E-score of -0.32.
`CTCATAGC` has an E-score of -0.0301.
The E-score of `TGTAGAAA` is reported as 0.145.
The E-score of `GCATTTAA` is reported as 0.186.

Series 2 — technique: protein binding microarray; form: double-stranded DNA, one strand shown; matrix: in vitro; concentration: not given; baseline: not given; reading: higher = stronger binding
Target: Histone acetyltransferase KAT6A, winged helix 1, GST fusion (KAT6A, Homo sapiens, UniProt Q92794, residues 1-85)
Setting: 8-mer, flanks averaged, mean of 2 arrays, mostly near background
Construct (chain): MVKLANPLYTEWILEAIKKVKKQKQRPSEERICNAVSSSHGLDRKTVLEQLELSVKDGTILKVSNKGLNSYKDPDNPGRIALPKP
The E-score of `GGACGTAA` is reported as 0.106.
The E-score of `AATCTACG` is reported as 0.0276.
`TAGAGTGA` has an E-score of -0.202.
With `GTAATTGA` the E-score was 0.103.
With `CCGGAACG` the E-score was 0.275.
With `AATATGCA` the E-score was -0.119.
With `AAATCGGC` the E-score was 0.276.
The E-score of `AAAAGCCC` is reported as -0.123.
`ACCTTAAT` has an E-score of -0.159.

Series 3 — technique: RNA Bind-n-Seq; form: RNA; matrix: in vitro; concentration: 1 µM; setting: whole 134-nt RNA, ends assumed; together with: 150 mM KCl; baseline: input library; reading: higher = stronger binding
Target: Ras GTPase-activating protein-binding protein 1, RRM domain (G3BP1, Homo sapiens, UniProt Q13283)
UniProt Q13283, sequence (whole entry, looked up): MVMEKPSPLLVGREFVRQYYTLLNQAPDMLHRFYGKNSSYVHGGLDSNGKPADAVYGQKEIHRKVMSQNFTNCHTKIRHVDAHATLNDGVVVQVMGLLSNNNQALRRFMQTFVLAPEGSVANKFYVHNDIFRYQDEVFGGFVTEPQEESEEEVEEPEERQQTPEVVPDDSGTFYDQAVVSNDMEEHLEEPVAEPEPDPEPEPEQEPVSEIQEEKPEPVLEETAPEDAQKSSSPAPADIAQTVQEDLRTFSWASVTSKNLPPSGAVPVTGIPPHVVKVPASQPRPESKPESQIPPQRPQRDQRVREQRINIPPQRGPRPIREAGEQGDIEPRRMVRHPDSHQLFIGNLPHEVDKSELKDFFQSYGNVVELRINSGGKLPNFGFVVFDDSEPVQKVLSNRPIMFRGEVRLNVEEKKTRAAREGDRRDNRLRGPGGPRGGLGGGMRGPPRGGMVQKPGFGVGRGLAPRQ
`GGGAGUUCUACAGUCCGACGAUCCAAGUCCUGUGCUACACAUCGUAUGUACCGAAUCGGGGCCCGGCCCGGGCCCGGGGAAAGUAUUAUGUUACGCCGUUCGGAUCUGCACUUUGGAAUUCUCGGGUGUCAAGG` has a log2 enrichment of -0.582.
With `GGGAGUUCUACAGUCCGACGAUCGUCCUGUGCUACACAUCGUAUGUACCGAAUCGGGUUUGGGUUUUUUUGGGAAAAAGGGAAAGUAUUAUGUUACGCCGUUCGGAUCUGCACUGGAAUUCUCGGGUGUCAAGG` the log2 enrichment was 0.209.
For `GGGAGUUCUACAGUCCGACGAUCCACAGACAACACGCACCCACACAGACACAGAGGGAAGGGGUUGGGAUGGGGCCAGGGUGCACAGCAGGGCGGGGUAGGACCCCAGCCCCUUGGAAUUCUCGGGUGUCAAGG`, the log2 enrichment was 0.00281.
With `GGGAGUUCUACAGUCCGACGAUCAAGUCCUGUGCUACACAUCGUAUGUACCGAAUCGGAAAGGGGAAAGGGGAAAGGGGAAAGUAUUAUGUUACGCCGUUCGGAUCUGCACUUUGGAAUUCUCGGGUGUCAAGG` the log2 enrichment was 0.285.
The log2 enrichment of `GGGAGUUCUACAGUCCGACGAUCUAACUUUAGAGGAGGAUCUGAUGGAUAUGGCAGUGGACGUGGAUUUGGGGAUGGCUAUAAUGGGUAUGGAGGCGGACCUGGAGGUGGCAAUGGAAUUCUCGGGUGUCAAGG` is reported as -0.331.
For `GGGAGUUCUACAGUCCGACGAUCUCCUGUGCUACACAUCGUAUGUACCGAAUCGGGGAAAAAAGGAAAAAAGGGAAAAAAGGGAAAGUAUUAUGUUACGCCGUUCGGAUCUGCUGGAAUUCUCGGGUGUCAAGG`, the log2 enrichment was -0.00617.
The log2 enrichment of `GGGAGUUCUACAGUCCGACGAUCCCUGUGCUACACAUCGUAUGUACCGAAUCGGGAAAAAAAGGGAAAAAAAGGGUUUUUGGGAAAGUAUUAUGUUACGCCGUUCGGAUCUGCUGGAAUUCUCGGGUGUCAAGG` is reported as -0.00466.
The log2 enrichment of `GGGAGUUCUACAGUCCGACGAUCCAAGUCCUGUGCUACACAUCGUAUGUACCGAAUCGGAAAGGUUUUUUUGGUUUGGAAAGUAUUAUGUUACGCCGUUCGGAUCUGCACUUCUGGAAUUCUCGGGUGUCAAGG` is reported as -0.489.
`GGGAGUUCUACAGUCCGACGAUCGCAGGAAGUAAAAACAAAUGGAAAUGCUUCGGAUAGUGGCAGGGGUGGGGGCUGCUAAGGAAAGGGUGGGAUGGGAGUGGGUAAAGAGUUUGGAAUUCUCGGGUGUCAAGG` gave a log2 enrichment of 0.809.

Further values, each from its own experiment
With `PhoQ, residues 284 288 289 292 302 303 ASHLAV` the fold induction was 1.12 (PhoP, residues 12 14 15 18 19 SYFRT (Escherichia coli, UniProt P23836); Sort-seq, item: YFP reporter; E. coli; PhoQ-PhoP variant library, together with: 10 µM Mg2+; baseline: high Mg2+ state, higher = stronger signaling).

Some of these lines once more (series 1):
`ATTGGTTG` has an E-score of 0.109.
The E-score of `TGTAGAAA` is reported as 0.145.
The E-score of `GCATTTAA` is reported as 0.186.
With `CGTCTGTC` the E-score was -0.255.
